# Experimental data of several laboratories.
# Lines come from different studies, so protocols differ. ± marks the error that the study gave.
# Organism: Influenza A virus
Structure (SMILES),test,test system,conditions,quantity,value
NC12CC3CC(CC(C3)C1)C2,viral replication,A/PR/8/34 parent allantoic stock,pH 4.9,EC50,67 ± 8 µM
CCC(CC)O[C@@H]1C=C(C(=O)O)C[C@H](N)[C@H]1NC(C)=O,"viral cytopathic effect, visual CPE score","MDCK, H1N1",,EC50,2 µM
C1CC2C1C1CCC2C2CNCC12 (stereo not drawn),viral replication,"MDCK, A/HK/7/87 (H3N2)",24 h,EC99,< 0.08 µM
CC(=O)N[C@H]1[C@H]([C@H](O)[C@H](O)CO)OC(SCCCCCCCCCCCCSC2(C(=O)O)C[C@H](NC(=N)N)[C@@H](NC(C)=O)[C@H]([C@H](O)[C@H](O)CO)O2)(C(=O)O)C[C@@H]1NC(=N)N (stereo partly drawn),viral replication,,,IC50,0.01 to 1 µM
CC(N)C12CC3CC(CC(C3)C1)C2 (stereo not drawn),"viral cytopathic effect, MTS","MDCK, H3N2",,EC50,> 200 µM
CCOC(=O)C1=C[C@@H](OC(CC)CC)[C@H](NC(C)=O)[C@@H](N)C1,plaque formation,H1N1,30 min,IC50,0.001 to 0.01 µM
NC12CC3CC(CC(C3)C1)C2,"viral replication, MTS","MDCK, H3N2",,EC50,14.4 ± 0.55 µM
NC12CC3CC(CC(C3)C1)C2,"viral cytopathic effect, MTS","MDCK, H3N2",,EC50,> 1000 µM
NC(=O)c1ncn([C@@H]2O[C@H](CO)[C@@H](O)[C@H]2O)n1,viral replication,H1N1,,IC50,28.2 ± 4.36 µM
CC(=O)N[C@H]1[C@H]([C@H](O)[C@H](O)CO)OC(SCCCCCCSC2(C(=O)O)C[C@H](NC(=N)N)[C@@H](NC(C)=O)[C@H]([C@H](O)[C@H](O)CO)O2)(C(=O)O)C[C@@H]1NC(=N)N (stereo partly drawn),plaque formation,H1N1,30 min,IC50,10 µM
NC(=O)c1ncn([C@@H]2O[C@H](CO)[C@@H](O)[C@H]2O)n1,"viral cytopathic effect, visual CPE score","MDCK, H1N1",,EC50,9 µM
COc1ccc(NC(=S)NCc2cccc3cn[nH]c23)cc1OC,"viral replication, inhibitor","MDCK, H1N1 WSN",,EC50,0.69 µM

# Some of these lines once more:
Structure (SMILES),test,test system,conditions,quantity,value
CCC(CC)O[C@@H]1C=C(C(=O)O)C[C@H](N)[C@H]1NC(C)=O,"viral cytopathic effect, visual CPE score","MDCK, H1N1",,EC50,2 µM
